Measurements collected from several papers.
Compare with care: the assays were run in different laboratories. ± gives the spread as reported.
ESR2: Estrogen receptor beta (ESR2, Homo sapiens, UniProt Q92731)
Sequence of UniProt Q92731 (whole entry, looked up): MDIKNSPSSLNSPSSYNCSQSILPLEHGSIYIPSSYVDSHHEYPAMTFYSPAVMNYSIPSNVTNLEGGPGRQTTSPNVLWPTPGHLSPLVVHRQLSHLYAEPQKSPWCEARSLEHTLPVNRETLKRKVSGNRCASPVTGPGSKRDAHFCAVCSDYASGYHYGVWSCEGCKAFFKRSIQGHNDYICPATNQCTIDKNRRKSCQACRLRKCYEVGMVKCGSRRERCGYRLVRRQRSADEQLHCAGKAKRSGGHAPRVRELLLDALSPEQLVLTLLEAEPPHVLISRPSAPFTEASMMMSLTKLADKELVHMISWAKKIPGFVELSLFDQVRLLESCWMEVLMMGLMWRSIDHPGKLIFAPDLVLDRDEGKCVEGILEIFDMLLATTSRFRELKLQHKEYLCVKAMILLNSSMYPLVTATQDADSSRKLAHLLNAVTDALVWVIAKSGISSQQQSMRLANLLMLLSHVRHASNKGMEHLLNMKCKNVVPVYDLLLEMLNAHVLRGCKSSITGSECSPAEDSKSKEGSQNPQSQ
BRAP ZnF-UBD domain: BRCA1-associated protein, ZnF-UBD domain (BRAP, Homo sapiens, UniProt Q7Z569)
Sequence of UniProt Q7Z569 (whole entry, looked up): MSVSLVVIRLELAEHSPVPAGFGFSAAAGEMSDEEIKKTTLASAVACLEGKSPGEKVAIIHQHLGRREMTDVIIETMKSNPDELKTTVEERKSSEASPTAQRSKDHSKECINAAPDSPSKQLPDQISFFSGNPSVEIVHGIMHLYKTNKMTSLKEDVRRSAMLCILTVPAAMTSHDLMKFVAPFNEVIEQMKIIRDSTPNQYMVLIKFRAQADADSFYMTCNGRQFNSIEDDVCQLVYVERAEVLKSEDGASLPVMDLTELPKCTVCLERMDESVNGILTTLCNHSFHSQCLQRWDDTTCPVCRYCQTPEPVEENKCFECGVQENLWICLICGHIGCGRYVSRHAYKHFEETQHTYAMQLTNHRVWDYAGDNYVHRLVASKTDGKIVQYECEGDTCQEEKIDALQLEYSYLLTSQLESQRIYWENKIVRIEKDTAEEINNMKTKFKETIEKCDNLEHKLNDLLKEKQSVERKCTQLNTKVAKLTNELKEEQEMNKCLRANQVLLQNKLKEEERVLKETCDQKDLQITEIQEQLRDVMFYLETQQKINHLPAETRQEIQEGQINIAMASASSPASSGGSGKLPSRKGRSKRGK
GPR84: G-protein coupled receptor 84 (GPR84, Homo sapiens, UniProt Q9NQS5)
Sequence of UniProt Q9NQS5 (whole entry, looked up): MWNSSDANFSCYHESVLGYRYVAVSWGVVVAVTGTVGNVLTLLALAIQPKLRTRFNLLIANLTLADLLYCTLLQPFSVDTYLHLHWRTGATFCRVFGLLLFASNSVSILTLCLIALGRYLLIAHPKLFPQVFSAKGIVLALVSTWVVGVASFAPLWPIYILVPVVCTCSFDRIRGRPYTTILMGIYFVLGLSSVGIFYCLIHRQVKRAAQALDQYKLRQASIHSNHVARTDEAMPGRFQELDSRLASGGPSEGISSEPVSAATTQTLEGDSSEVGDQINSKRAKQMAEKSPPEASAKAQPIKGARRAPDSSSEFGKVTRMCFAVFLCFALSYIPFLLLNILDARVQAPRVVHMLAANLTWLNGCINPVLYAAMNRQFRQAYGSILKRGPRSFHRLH
VCP: Transitional endoplasmic reticulum ATPase (VCP, Homo sapiens, UniProt P55072)
Sequence of UniProt P55072 (whole entry, looked up): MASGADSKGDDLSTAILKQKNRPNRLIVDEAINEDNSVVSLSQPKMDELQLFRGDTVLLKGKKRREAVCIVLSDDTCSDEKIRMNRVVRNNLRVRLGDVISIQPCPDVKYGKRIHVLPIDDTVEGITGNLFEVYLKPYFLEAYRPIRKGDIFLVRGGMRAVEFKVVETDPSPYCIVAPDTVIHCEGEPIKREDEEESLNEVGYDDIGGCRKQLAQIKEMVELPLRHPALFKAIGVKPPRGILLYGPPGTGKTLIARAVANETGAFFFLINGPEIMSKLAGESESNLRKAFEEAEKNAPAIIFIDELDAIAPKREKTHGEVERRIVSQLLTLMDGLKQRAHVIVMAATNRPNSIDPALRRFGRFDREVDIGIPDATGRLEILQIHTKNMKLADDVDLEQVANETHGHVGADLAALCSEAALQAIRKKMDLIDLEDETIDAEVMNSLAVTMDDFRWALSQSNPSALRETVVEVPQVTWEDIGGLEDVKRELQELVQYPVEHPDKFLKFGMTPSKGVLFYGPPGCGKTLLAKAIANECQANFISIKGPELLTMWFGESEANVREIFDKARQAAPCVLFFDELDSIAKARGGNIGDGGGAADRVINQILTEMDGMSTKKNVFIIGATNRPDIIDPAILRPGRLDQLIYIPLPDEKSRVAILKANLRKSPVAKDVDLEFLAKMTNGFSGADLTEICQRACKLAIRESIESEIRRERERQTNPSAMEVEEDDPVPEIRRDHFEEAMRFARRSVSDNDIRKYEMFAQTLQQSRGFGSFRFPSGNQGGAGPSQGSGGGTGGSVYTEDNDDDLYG
Sequence of UniProt Q99523 (whole entry, looked up): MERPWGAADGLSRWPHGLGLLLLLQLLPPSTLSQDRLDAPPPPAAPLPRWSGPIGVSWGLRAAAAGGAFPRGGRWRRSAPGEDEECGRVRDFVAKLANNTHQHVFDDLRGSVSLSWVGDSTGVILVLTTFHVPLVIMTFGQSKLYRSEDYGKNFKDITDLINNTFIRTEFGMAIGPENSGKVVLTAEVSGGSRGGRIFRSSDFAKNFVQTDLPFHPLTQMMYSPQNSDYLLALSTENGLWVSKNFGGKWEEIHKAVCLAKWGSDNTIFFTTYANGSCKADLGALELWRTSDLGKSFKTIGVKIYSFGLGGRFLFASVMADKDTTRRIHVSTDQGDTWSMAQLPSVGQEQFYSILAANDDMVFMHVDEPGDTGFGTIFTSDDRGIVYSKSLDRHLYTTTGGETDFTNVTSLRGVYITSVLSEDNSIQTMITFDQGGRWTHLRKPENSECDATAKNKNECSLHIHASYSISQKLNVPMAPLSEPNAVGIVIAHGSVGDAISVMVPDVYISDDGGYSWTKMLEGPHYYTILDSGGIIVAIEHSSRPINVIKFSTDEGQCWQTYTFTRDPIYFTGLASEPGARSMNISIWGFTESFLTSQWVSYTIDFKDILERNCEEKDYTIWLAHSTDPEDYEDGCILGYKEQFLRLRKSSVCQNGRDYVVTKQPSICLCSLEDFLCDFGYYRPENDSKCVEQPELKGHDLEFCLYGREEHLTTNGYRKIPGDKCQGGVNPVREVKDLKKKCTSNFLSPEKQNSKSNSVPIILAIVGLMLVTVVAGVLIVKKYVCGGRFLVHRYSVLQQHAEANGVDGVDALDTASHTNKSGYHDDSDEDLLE
Sequence of UniProt Q92633 (whole entry, unmodified, looked up): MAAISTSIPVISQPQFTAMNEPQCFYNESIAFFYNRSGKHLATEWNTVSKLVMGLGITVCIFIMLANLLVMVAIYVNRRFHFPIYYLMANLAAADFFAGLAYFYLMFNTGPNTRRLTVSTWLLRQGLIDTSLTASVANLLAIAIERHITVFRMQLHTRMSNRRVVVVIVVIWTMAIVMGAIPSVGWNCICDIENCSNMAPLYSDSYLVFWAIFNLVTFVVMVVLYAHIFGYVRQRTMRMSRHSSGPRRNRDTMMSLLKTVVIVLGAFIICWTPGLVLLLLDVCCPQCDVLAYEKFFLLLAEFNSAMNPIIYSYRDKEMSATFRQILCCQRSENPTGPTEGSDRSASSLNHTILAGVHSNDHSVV
Sequence of UniProt Q96GD4 (whole entry, looked up): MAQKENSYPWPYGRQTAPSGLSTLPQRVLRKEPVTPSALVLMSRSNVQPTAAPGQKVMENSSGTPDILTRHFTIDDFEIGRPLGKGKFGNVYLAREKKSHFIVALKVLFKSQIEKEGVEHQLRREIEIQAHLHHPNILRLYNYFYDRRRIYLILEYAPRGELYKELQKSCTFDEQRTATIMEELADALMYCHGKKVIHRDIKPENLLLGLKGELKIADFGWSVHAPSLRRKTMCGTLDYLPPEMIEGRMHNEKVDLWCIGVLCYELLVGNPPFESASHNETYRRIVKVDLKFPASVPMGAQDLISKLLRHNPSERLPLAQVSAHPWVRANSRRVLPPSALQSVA

CC(C)=CCc1cc2c(cc1O)O[C@H](c1ccc(O)cc1)CC2=O  EC50 (ESR2; array formation, agonist; GFP-ERβ PRL-HeLa; 1 h): 0.146 µM
Cc1sc2ncn(CC(=O)O)c(=O)c2c1C  Kd (BRAP ZnF-UBD domain): 315 µM
Oc1ccc2c(c1)OC[C@H]1c3cc4c(cc3O[C@@H]21)OCO4  EC50 (ESR2; array formation, agonist; GFP-ERβ PRL-HeLa; 1 h): 1.58 µM
CCCCCCCCNc1[nH]c(=O)[nH]c(=O)c1Br  EC50 (GPR84; cAMP level, agonist; human cells): 1.99 ± 0.59 µM
COc1ccccc1/C=C/C(=O)c1ccccc1O  EC50 (ESR2; array formation, agonist; GFP-ERβ PRL-HeLa; 1 h): 5.35 µM
c1ccc(-c2nc(N3CCc4ccccc4C3)c3ccccc3n2)cc1  IC50 (VCP; enzyme activity, inhibitor): > 30 µM
COc1c(O)cc2oc(-c3ccc(O)cc3)cc(=O)c2c1O  EC50 (ESR2; array formation, agonist; GFP-ERβ PRL-HeLa; 1 h): 1.81 µM
Fc1ccccc1-c1nc(NCc2ccccc2Cl)c2ccccc2n1  IC50 (VCP; enzyme activity, inhibitor): 26 ± 12 µM
O=C(O)CNC(=O)c1ccc(S(=O)(=O)N2CCC(n3c(=O)oc4ccccc43)CC2)cc1  Kd (BRAP ZnF-UBD domain): > 1000 µM
Clc1ccc(Nc2nc(Nc3cccc(Cl)c3)nc3ccccc23)cc1  IC50 (VCP; enzyme activity, inhibitor): 117 ± 5.8 µM
O=c1cc(NCCc2cccc(Br)c2)[nH]c(=O)[nH]1  EC50 (GPR84; agonist): 0.186 µM
O=C(O)Cn1cnc2c(oc3ccccc32)c1=O  Kd (BRAP ZnF-UBD domain): 253 µM
Clc1ccc(-c2nc(NCc3ccccc3)c3ccccc3n2)cc1Cl  IC50 (VCP; enzyme activity, inhibitor): 7.1 ± 0.4 µM
Oc1cc(NCCCCc2ccccc2)nc(O)n1  EC50 (GPR84; cAMP): 0.0245 µM
C[C@@H]1O[C@@H](OC[C@H]2O[C@@H](Oc3c(-c4ccc(O)c(O)c4)oc4cc(O)cc(O)c4c3=O)[C@H](O)[C@@H](O)[C@@H]2O)[C@H](O)[C@H](O)[C@H]1O  EC50 (ESR2; array formation, agonist; GFP-ERβ PRL-HeLa; 1 h): 8.62 µM
O=C(O)CN1Cc2ccccc2C1=O  Kd (BRAP ZnF-UBD domain): 685 µM
CCc1oc2c([C@H](CO)N(CC)CC)cccc2c1C  EC50 (LPAR1 (Homo sapiens, UniProt Q92633, L297A); Gi protein dissociation, agonist, NanoBiT; HEK293T): 0.041 µM
CCc1ccc(CCNc2cc(=O)[nH]c(=O)[nH]2)cc1  EC50 (GPR84; agonist): 0.123 µM
C=C1CN(S(=O)(=O)c2ccc(C)cc2)CCCN(CC2CCCCC2)CCCN(S(=O)(=O)c2ccc(OCCO)cc2)C1  DC50 (Sortilin (Homo sapiens, UniProt Q99523); protein expression, flow cytometry; HEK-293T expressing sortilin-GFP; 24 h): 9 ± 1 µM
O=c1cc(N2CCN(c3ccc(Cl)cc3)CC2)[nH]c(=O)[nH]1  EC50 (GPR84; agonist): 1.82 µM
c1ccc2c(c1)OCCN2c1nc(N2CCOc3ccccc32)c2ccccc2n1  IC50 (VCP; enzyme activity, inhibitor): > 30 µM
Cc1ncsc1-c1ccc([C@H](C)NC(=O)[C@@H]2C[C@@H](O)CN2C(=O)[C@@H](NC(=O)CCCCCCCCC(=O)N(CCO)CCCOc2ccc3c(Nc4cc(CC(=O)Nc5cccc(F)c5)[nH]n4)ncnc3c2)C(C)(C)C)cc1  DC50 (Aurora kinase B (AURKB, Homo sapiens, UniProt Q96GD4); degrader, western blot, refers to: Aurora kinase B; HPAF-II; 24 h): 0.103 µM
Fc1ccc(CNc2nc(-c3ccc(Cl)cc3)nc3ccccc23)cc1  IC50 (VCP; enzyme activity, inhibitor): 8 ± 0.2 µM
COc1ccc(-c2oc3c(CC=C(C)C)c(O[C@@H]4O[C@H](CO)[C@@H](O)[C@H](O)[C@H]4O)cc(O)c3c(=O)c2O)cc1  EC50 (ESR2; array formation, agonist; GFP-ERβ PRL-HeLa; 1 h): 4.39 µM
COc1cc(F)ccc1-c1ncnc(Nc2cccc(C[S@](C)(=N)=O)c2)n1  remaining activity (MLCK, human; kinase activity; 10 µM, added: ATP 10 µM): 69%
O=c1cc(-c2ccc(O)cc2)oc2cccc(O)c12  EC50 (ESR2; array formation, agonist; GFP-ERβ PRL-HeLa; 1 h): 0.244 µM
Cc1ccc(C(=O)O)cc1S(=O)(=O)Nc1cccc(C(=O)CCC(=O)O)c1  Kd (BRAP ZnF-UBD domain): 234 µM
Cc1ccc(Nc2nc(Nc3cccc(Cl)c3)nc3ccccc23)cc1  IC50 (VCP; enzyme activity, inhibitor): 49 ± 19 µM
O=c1cc(NCCc2ccc(Cl)cc2Cl)[nH]c(=O)[nH]1  EC50 (GPR84; agonist): 0.0821 ± 0.0348 µM
O=C(O)Cn1ccc2ccccc2c1=O  Kd (BRAP ZnF-UBD domain): > 1000 µM
C[C@@H]1O[C@@H](O[C@H]2[C@H](Oc3cc(O)c(C(=O)CCc4ccc(O)cc4)c(O)c3)O[C@H](CO)[C@@H](O)[C@@H]2O)[C@H](O)[C@H](O)[C@H]1O  EC50 (ESR2; array formation, agonist; GFP-ERβ PRL-HeLa; 1 h): 2.37 µM
CCCCCCNc1[nH]c(=O)[nH]c(=O)c1Br  EC50 (GPR84; cAMP level, agonist; human cells): 7.37 ± 1.57 µM
O=C(O)CNc1ncccn1  Kd (BRAP ZnF-UBD domain): > 1000 µM
O=c1cc(NCCCOc2ccccc2)[nH]c(=O)[nH]1  EC50 (GPR84; cAMP): 0.0741 µM
Cc1cccc(Nc2nc(NCc3ccccc3)c3ccccc3n2)c1  IC50 (VCP; enzyme activity, inhibitor): 1.7 ± 0.5 µM
